Measured values from different studies.
A part holds a random share of what one study measured. Numbers after ± are the reported error.

Study 1 — organism: SARS-CoV-2 Wuhan spike VSV pseudovirus; observed: pseudovirus entry; tested at: concentration not given; quantity: inhibition
SMILES = CC(=O)N1CCCSc2ccc(S(=O)(=O)N3CCSc4ccccc43)cc21; result = 40%
SMILES = Cc1ccc(CN2CCC(CNC(=O)C3CCN(c4ccc(-c5cccs5)nn4)CC3)C2)cc1 (stereo not shown); result = 41%
SMILES = Cc1noc(C)c1CCC(=O)NC1CC(=O)N(C2CCCCCC2)C1 (stereo not shown); result = 40%
SMILES = Cn1ccc2ccn(CC(=O)Nc3cccc(Br)c3)c(=O)c21; result = 40%
SMILES = Nc1nc(NCCNc2ccccc2)cc(N2CCOCC2)n1; result = 41%
SMILES = Cc1c(C(=O)OCC(=O)NC(=O)NCc2ccco2)oc2c1ccc1ccccc12; result = 41%
SMILES = CCOc1ccc(NC(=O)Cn2ncc(Cl)c(Cl)c2=O)c([N+](=O)[O-])c1; result = 42%
SMILES = N#CCSc1ccccc1NC(=O)Cn1ncc(Cl)c(Cl)c1=O; result = 45%

Further values, each from its own experiment
rep nsp14: Replicase polyprotein 1ab, nsp14 (rep, Severe acute respiratory syndrome coronavirus 2, UniProt P0DTD1)
rep papain-like protease: Replicase polyprotein 1ab, papain-like protease (rep, Severe acute respiratory syndrome coronavirus 2, UniProt P0DTD1)
rep nsp12 RdRp: Replicase polyprotein 1ab, nsp12 RdRp (rep, Severe acute respiratory syndrome coronavirus 2, UniProt P0DTD1)
Structure (SMILES) = O=C(NC1CCN(c2ncnc3[nH]cnc23)CC1)c1cccc(S(=O)(=O)N2CCCCC2)c1; tested on = rep nsp14; assay = NSP14 enzyme activity, inhibitor; setting = 3.125 µM; quantity = inhibition; result = 20%
Structure (SMILES) = CCC(CC)[C@H](NC(C)=O)[C@@H]1[C@H](O)[C@@H](C(=O)O)C[C@H]1N=C(N)N; tested on = neuraminidase (Influenza B virus, UniProt A0A1S5RAG6, R150K); quantity = IC50; result = 566 ± 89.5 nM
Structure (SMILES) = CC(C)(F)C[C@H](N[C@@H](c1ccc(-c2ccc(S(C)(=O)=O)cc2)cc1)C(F)(F)F)C(=O)NC1(C#N)CC1; tested on = rep papain-like protease; setting = concentration not given, C111S mutant; scale = reference: positive control; quantity = activity; result = 21.4%
Structure (SMILES) = O=C(NC1CCN(c2ncnc3[nH]cnc23)CC1)c1cccc(S(=O)(=O)N2CCCC2)c1; tested on = rep nsp14; assay = NSP14 enzyme activity, inhibitor; setting = 0.01221 µM; quantity = inhibition; result = 13.2%
Structure (SMILES) = CC1(C)O[C@H]2CC(=O)OC[C@]23[C@H]2CC[C@@]4(C)[C@H](c5ccoc5)OC(=O)[C@H]5O[C@]54[C@]2(C)C(=O)C[C@@H]13; tested on = rep nsp12 RdRp; assay = binding, biolayer interferometry; setting = concentration not given; quantity = BLI response; result = 0 nm
Structure (SMILES) = O=C(O)C1(c2ccc(-c3ccc(Cl)c(Cl)c3)c(F)c2)CC1; tested on = rep papain-like protease; setting = concentration not given, C111S mutant; scale = reference: positive control; quantity = activity; result = 18%
Structure (SMILES) = N#C[C@@]1(n2ccc(N)nc2=O)O[C@H](CO)[C@@H](O)[C@H]1O; tested on = SARS-CoV-2; assay = viral replication; system = Vero, Beta; quantity = EC50; result = 400 ± 20 nM
Structure (SMILES) = CCOc1nc2cccc(C(=O)OCc3oc(=O)oc3C)c2n1Cc1ccc(-c2ccccc2-c2noc(=O)[nH]2)cc1; tested on = rep nsp12 RdRp; assay = binding, biolayer interferometry; setting = concentration not given; quantity = BLI response; result = -0.03 nm

A few entries again (study 1):
SMILES = Cn1ccc2ccn(CC(=O)Nc3cccc(Br)c3)c(=O)c21; result = 40%
SMILES = Cc1ccc(CN2CCC(CNC(=O)C3CCN(c4ccc(-c5cccs5)nn4)CC3)C2)cc1 (stereo not shown); result = 41%
